# Assay results gathered from unrelated publications.
# Cell line: HEK-293T
SMILES,test,setting,how to read,endpoint,result
CC1(C)O[C@H](COP2(=O)OCc3ccccc3O2)[C@H](C(=O)NO)O1 (stereo partly shown),"cytotoxicity, Alamar Blue",,,IC50,> 200 µM
C1=CCCC=CCC1.C1=CCCC=CCC1.O=C(N=P12CN3CN(CN(C3)C1)C2)c1cccc[c]1[Pt+].O=C(N=P12CN3CN(CN(C3)C1)C2)c1cccc[c]1[Pt+].[Cl][Hg-]([Cl])[Cl].[Cl][Hg-]([Cl])[Cl].[Cl][Hg][Cl].[Cl][Hg][Cl],"cell growth or viability, MTT",24 h,,IC50,4 µM
O=C(C[P+]([Au-][Cl])(c1ccccc1)c1ccccc1)[O][Ti+2][O]C(=O)C[P+]([Au-][Cl])(c1ccccc1)c1ccccc1.c1cc[cH-]c1.c1cc[cH-]c1,"cell growth or viability, XTT",72 h,,IC50,6.9 µM
O=C1NC(=O)C(=NNc2cc(S(=O)(=O)O)cc(S(=O)(=O)O)c2O)C(=O)N1,"cell growth or viability, trypan blue",24 h,,IC50,73300 µM
COc1ccc(CONC(=O)C2OC(C)(C)OC2COP2(=O)OCc3ccccc3O2)c(OC)c1 (stereo not shown),"cytotoxicity, Alamar Blue",,,IC50,> 200 µM
C1=CCCC=CCC1.C1=CCCC=CCC1.[Cl][Hg-]([Cl])[Cl].[Cl][Hg-]([Cl])[Cl].[Pt+][c]1ccccc1P(=Nc1ccccc1)(c1ccccc1)c1ccccc1.[Pt+][c]1ccccc1P(=Nc1ccccc1)(c1ccccc1)c1ccccc1,"cell growth or viability, MTT",24 h,,IC50,1.25 µM
[CH3][Ti+2][O]C(=O)c1ccc([S][Au][PH](c2ccccc2)(c2ccccc2)[c-]2cccc2)cc1.[Fe+2].c1cc[cH-]c1.c1cc[cH-]c1.c1cc[cH-]c1,"cell growth or viability, XTT",72 h,,IC50,3.09 µM
C=C(C)C12OC3(c4ccccc4)OC1C1C(O)C(Br)(CO)C(O)C4(O)C(=O)C(C)=CC4C1(O3)C(C)C2OC(=O)c1ccccc1 (stereo not shown),"importin-β1 nuclear import, measured: NFAT-GFP","40 nM, 1 h, added: ionomycin 30 min",,nuclear accumulation,decreased
O=C(O)c1ccc([S][Au][PH](c2ccccc2)(c2ccccc2)[c-]2cccc2)cc1.[Fe+2].c1cc[cH-]c1,"cell growth or viability, XTT",72 h,,IC50,3 µM
CC(C)C12OC1C1OC13C1(C)CCC4=C(COC4=O)C1CC1OC13C2OC(=O)CCCOC1OC(CO)C(O)C(O)C1O (stereo not shown),"cell proliferation, thymidine incorporation",,baseline: compound over triptolide,IC50 ratio,~13 fold

# Excerpt of the above:
SMILES,test,setting,how to read,endpoint,result
O=C1NC(=O)C(=NNc2cc(S(=O)(=O)O)cc(S(=O)(=O)O)c2O)C(=O)N1,"cell growth or viability, trypan blue",24 h,,IC50,73300 µM
